Published values gathered from unrelated publications.
Every numbered part comes from another study and shows a few of its results, in no order.

Set 1
Target: Histone acetyltransferase KAT6A, winged helix 1, GST fusion (KAT6A, Homo sapiens, UniProt Q92794, residues 1-85)
Technique: protein binding microarray
Molecule type: double-stranded DNA, one strand shown
Matrix: in vitro
Concentration: not given
Notes: 8-mer, flanks averaged, mean of 2 arrays, mostly near background
Relative to: not given
Reading: higher = stronger binding
Construct (chain): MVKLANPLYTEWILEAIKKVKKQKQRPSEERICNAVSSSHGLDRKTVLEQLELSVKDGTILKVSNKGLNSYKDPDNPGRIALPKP
With `AGTCGATA` the E-score was -0.215.
With `AGGCCCAA` the E-score was -0.0409.
`CCGATACG` gave an E-score of 0.305.

Single results of other studies
SALL4 full length isoform B: Sal-like protein 4, full length isoform B (SALL4, Homo sapiens, UniProt Q9UJQ4-2, residues 1-616)
IRF5 K96S/S451D/S453D/S456D/S462D full length, phosphomimetic: Interferon regulatory factor 5, full length, phosphomimetic (IRF5, Homo sapiens, UniProt Q13568-2, residues 1-514, K96S/S451D/S453D/S456D/S462D)
For `ACCTGTGG`, the E-score was -0.119 (SALL4 full length isoform B; universal PBM; double-stranded DNA, one strand shown, in vitro; not given, 8-mer, flanks averaged, mean of replicates; higher = stronger binding).
Under “fitted relative affinity”, `GCCTAGCACTTAGGTTCCGGTTTCGGTCAGTGCTAGGTCTTGATTCGCTTGACGCTGCTG` is recorded as 9.12 z-score (Interferon regulatory factor 5, full length, phosphomimetic (IRF5, Homo sapiens, UniProt Q13568-2, residues 1-514, S451D/S453D/S456D/S462D); protein-binding microarray; double-stranded DNA, one strand shown, in vitro; 940 nM top, 60-bp whole probe, with: salmon DNA 0.4 mg/ml; relative to: random background probes, higher = stronger binding).
For `CACAAAGG`, the E-score was -0.0259 (SALL4 full length isoform B; universal PBM; double-stranded DNA, one strand shown, in vitro; not given, 8-mer, flanks averaged, mean of replicates; higher = stronger binding).
The log fluorescence of `GCCTAGCACGACGATTTCAGACTGGCGACGTGCTAGGTCTTGATTCGCTTGACGCTGCTG` is reported as 0.185 z-score (IRF5 K96S/S451D/S453D/S456D/S462D full length, phosphomimetic; protein-binding microarray; double-stranded DNA, one strand shown, in vitro; 250 nM, 60-bp whole probe, with: salmon DNA 0.4 mg/ml; relative to: random background probes, higher = stronger binding).
`PhoQ, residues 284 288 289 292 302 303 SLANIV` has a fold induction of 16.4 (PhoP, residues 12 14 15 18 19 NNFVT (Escherichia coli, UniProt P23836); Sort-seq, refers to: YFP reporter; E. coli; PhoQ-PhoP variant library, with: 10 µM Mg2+; relative to: high Mg2+ state, higher = stronger signaling).
`GCCTAGCACTCACTTTTATCCCTGACACTGTGCTAGGTCTTGATTCGCTTGACGCTGCTG` has a log fluorescence of 0.73 z-score (IRF5 K96S/S451D/S453D/S456D/S462D full length, phosphomimetic; protein-binding microarray; double-stranded DNA, one strand shown, in vitro; 250 nM, 60-bp whole probe, with: salmon DNA 0.4 mg/ml; relative to: random background probes, higher = stronger binding).
With `ACGAATAT` the E-score was 0.343 (SALL4 full length isoform B; universal PBM; double-stranded DNA, one strand shown, in vitro; not given, 8-mer, flanks averaged, mean of replicates; higher = stronger binding).

Excerpt of the above (single results of other studies):
`GCCTAGCACTCACTTTTATCCCTGACACTGTGCTAGGTCTTGATTCGCTTGACGCTGCTG` has a log fluorescence of 0.73 z-score (IRF5 K96S/S451D/S453D/S456D/S462D full length, phosphomimetic; protein-binding microarray; double-stranded DNA, one strand shown, in vitro; 250 nM, 60-bp whole probe, with: salmon DNA 0.4 mg/ml; relative to: random background probes, higher = stronger binding).
